Assay results from different studies.
Every numbered part comes from another study and shows a few of its results, in no order. Positions count from the first letter of the parent shown.
UniProt Q9ZSY8, sequence (whole entry, looked up): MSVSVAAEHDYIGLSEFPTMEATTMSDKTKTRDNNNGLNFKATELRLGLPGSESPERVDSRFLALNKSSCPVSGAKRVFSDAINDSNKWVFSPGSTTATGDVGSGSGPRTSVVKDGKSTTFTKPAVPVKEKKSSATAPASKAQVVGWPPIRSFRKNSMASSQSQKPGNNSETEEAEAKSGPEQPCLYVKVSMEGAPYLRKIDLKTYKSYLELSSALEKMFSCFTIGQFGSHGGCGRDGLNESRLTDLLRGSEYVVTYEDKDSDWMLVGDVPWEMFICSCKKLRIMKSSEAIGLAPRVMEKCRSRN
UniProt P93024, sequence (whole entry, looked up): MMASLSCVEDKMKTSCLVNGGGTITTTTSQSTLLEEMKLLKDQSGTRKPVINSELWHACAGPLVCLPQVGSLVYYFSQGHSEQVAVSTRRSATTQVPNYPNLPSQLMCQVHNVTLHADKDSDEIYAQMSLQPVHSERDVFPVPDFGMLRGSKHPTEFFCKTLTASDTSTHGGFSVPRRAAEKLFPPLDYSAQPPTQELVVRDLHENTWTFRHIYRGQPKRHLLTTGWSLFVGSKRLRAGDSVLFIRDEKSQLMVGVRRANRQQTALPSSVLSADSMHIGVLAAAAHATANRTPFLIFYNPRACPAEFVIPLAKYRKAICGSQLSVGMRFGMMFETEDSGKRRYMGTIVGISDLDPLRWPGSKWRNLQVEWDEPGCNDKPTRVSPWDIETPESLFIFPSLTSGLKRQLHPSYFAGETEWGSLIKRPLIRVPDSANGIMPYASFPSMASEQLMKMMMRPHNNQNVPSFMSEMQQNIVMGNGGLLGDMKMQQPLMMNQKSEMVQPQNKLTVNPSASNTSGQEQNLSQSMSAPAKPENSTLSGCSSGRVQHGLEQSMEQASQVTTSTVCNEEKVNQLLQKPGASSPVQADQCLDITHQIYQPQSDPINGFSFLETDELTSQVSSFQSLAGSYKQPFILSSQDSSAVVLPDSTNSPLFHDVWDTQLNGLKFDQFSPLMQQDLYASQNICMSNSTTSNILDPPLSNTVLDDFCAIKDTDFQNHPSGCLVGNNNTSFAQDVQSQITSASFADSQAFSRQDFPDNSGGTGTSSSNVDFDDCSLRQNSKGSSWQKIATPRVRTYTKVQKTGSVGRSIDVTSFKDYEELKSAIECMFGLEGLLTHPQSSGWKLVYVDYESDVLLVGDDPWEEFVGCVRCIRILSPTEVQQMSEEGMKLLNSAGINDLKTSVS
UniProt O24410, sequence (whole entry, looked up): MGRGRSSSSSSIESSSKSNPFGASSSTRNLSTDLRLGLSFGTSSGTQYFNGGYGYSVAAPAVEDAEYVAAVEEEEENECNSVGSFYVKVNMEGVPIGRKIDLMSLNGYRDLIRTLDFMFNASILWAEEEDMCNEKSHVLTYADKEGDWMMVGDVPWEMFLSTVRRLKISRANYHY
UniProt Q8RYC6, sequence (whole entry, looked up): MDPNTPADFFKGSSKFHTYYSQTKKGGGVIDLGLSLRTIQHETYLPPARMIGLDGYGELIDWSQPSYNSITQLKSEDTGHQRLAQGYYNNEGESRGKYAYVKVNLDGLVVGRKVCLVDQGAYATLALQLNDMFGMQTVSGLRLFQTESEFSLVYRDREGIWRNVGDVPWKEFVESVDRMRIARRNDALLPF
UniProt Q9C8N7, sequence (whole entry, looked up): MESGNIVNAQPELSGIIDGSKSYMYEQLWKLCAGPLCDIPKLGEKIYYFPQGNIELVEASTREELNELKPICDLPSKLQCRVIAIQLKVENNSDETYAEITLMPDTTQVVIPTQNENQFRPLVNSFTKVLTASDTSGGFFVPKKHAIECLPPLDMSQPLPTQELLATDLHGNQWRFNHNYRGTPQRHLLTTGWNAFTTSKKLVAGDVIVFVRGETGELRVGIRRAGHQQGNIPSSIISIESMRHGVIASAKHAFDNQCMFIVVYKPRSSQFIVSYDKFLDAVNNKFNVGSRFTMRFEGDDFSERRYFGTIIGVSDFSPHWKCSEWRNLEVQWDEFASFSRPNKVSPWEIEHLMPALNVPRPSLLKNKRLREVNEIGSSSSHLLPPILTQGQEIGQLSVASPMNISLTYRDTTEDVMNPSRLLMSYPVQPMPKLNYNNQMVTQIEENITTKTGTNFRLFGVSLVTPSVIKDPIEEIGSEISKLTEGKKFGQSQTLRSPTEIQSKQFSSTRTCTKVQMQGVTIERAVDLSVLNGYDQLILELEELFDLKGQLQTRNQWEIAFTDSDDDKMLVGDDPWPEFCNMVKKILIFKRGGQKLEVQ
UniProt Q93YR9, sequence (whole entry, looked up): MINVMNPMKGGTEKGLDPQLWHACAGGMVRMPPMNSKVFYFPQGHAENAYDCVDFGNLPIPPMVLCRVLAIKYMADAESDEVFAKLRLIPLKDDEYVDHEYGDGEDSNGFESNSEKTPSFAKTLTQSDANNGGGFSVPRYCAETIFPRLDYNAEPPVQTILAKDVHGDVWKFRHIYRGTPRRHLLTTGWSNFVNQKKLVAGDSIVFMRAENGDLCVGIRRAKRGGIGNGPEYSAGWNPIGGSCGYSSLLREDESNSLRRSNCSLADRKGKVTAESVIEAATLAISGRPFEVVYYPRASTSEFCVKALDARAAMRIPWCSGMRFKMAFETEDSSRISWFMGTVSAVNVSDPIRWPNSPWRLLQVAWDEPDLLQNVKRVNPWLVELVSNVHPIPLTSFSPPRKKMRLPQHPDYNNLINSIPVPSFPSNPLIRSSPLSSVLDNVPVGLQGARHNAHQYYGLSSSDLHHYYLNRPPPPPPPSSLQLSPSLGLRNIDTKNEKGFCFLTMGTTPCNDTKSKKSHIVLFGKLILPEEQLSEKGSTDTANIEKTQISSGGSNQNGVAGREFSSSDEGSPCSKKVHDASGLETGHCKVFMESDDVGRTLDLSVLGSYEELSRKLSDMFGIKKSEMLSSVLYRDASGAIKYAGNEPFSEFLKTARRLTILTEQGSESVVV

Set 1
Target: ABI1, truncated, D143A, DHFR fusion (Arabidopsis thaliana)
Technique: DHFR PCA, deep sequencing
Matrix: yeast
Notes: methotrexate growth selection, single substitutions
With: (+)-ABA 0.39 µM
Reference: wild-type fitted maximum
Direction: higher = stronger binding
Starting sequence: PYL1, truncated, DHFR fusion (Arabidopsis thaliana); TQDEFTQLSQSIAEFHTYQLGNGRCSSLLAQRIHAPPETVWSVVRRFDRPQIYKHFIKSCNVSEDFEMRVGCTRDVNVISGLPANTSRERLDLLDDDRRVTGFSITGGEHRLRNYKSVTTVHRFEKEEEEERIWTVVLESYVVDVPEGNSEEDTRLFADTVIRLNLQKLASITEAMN; partner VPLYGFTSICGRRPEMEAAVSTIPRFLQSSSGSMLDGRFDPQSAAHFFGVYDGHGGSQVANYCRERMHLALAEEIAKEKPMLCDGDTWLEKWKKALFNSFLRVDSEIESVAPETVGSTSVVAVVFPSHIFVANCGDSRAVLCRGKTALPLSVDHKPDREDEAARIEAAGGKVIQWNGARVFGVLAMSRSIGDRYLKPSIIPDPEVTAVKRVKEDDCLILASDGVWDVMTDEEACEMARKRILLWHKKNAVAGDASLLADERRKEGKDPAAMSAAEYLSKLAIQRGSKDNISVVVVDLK
| Variant | relative binding score |
| --- | --- |
| L94G | -17.7% |
| E174Q | 16.1% |
| P36Q | 16.4% |
| V121W | -3.65% |
| S59C | 10.6% |
| F157P | 12.5% |
| C72H | 4.78% |
| I162P | 1.31% |
| D48R | -3.14% |
| N165C | 7.14% |
| S171T | 55.9% |
| V137S | -8.46% |
| R45M | -1.9% |
| V62F | 6.05% |
| L28M | 37.5% |
| S171N | 27.1% |
| A84M | 53.4% |
| T106K | -11.8% |
| D65N | 45.7% |

Set 2
Target: CCNA2, cyclin fold, Cln2 fusion (human)
Technique: yeast growth competition, sequencing
Matrix: yeast
Notes: strong parent motif
Reference: not given
Direction: higher = stronger binding
Starting sequence: E2F2 docking peptide (human); LPAKRKLDLEGIG
| Variant | normalised enrichment score |
| --- | --- |
| LPAKRKLDLEGAG [I12A] | 3.52 |
| LPAKRKLDLAGIG [E10A] | 3.26 |
| LPAKRKLDFEGIG [L9F] | 5.7 |
| LPAARKLDLEGIG [K4A] | 4.1 |
| LPAKAKLDLEGIG [R5A] | 1.37 |
| LPAKRKLDLEAIG [G11A] | 2.99 |
| APAKRKLDLEGIG [L1A] | 3.58 |

Set 3
Target: BATF2, bZIP domain (human)
Technique: DHFR protein complementation
Matrix: yeast
Notes: single substitutions, most at no-binding floor
Reference: wild-type JUN-FOS pair
Direction: higher = stronger binding
Starting sequence: JUN, bZIP domain (human); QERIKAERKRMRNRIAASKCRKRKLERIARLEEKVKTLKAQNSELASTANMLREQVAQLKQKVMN; partner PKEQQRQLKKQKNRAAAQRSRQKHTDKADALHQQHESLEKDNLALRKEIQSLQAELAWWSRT
| Variant | binding fitness [natural log] |
| --- | --- |
| K36R | -0.181 |
| M51N | -0.223 |
| K34C | -0.355 |
| E32H | -0.739 |
| T37A | -0.128 |
| A57R | -0.483 |
| M51E | -0.255 |
| E32K | -0.452 |
| L31G | -1.31 |
| E33W | -0.536 |
| A49T | -1.08 |
| R53C | -1.38 |
| N42F | -1.06 |

Set 4
Target: Sal-like protein 4, full length isoform A (SALL4, Homo sapiens, UniProt Q9UJQ4, residues 1-1053)
UniProt Q9UJQ4, sequence (whole entry, looked up): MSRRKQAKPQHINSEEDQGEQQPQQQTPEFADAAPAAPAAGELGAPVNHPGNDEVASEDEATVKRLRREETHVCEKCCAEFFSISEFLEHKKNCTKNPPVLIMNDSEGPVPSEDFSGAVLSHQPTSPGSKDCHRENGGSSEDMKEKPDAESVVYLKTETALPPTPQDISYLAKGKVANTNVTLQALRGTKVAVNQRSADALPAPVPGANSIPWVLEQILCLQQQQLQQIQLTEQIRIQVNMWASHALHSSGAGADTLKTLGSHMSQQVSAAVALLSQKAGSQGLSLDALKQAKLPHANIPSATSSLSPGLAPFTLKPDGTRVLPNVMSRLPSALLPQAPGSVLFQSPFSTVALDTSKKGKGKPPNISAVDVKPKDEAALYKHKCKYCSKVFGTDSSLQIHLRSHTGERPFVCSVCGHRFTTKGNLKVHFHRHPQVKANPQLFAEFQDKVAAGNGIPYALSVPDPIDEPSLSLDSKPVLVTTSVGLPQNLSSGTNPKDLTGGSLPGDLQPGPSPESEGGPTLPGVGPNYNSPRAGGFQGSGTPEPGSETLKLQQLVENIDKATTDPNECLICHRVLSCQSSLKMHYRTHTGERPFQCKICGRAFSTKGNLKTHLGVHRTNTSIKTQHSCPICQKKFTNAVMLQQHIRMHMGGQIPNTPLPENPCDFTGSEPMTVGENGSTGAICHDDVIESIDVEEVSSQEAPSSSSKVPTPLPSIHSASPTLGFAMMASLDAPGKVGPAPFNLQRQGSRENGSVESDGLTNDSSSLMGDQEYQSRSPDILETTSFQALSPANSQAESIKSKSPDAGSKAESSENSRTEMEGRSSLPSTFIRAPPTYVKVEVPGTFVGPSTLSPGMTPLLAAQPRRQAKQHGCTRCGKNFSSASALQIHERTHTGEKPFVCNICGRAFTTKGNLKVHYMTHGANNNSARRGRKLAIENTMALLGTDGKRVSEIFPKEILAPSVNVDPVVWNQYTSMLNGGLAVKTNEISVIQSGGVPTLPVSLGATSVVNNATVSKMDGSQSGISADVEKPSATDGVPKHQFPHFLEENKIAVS
Technique: universal PBM
Form: double-stranded DNA, one strand shown
Matrix: in vitro
Concentration: 600 nM
Notes: 8-mer, flanks averaged, mean of replicates
Direction: higher = stronger binding
| Strand | E-score |
| --- | --- |
| GACCATAC | -0.0312 |
| GACCTGTA | 0.01 |
| AACGACGG | -0.0636 |
| CTCGGTAC | -0.22 |
| AATTAGAG | 0.131 |
| ATGGAGCG | -0.0707 |
| ATATACTG | 0.277 |
| CCATGGAG | -0.178 |
| CCTCTGAA | -0.0803 |
| CCTAGTCA | -0.051 |
| AATAGCCG | -0.0169 |
| AAACAATC | 0.241 |
| CGAAGCTA | 0.0346 |
| GCTTACAA | 0.232 |
| ATTTTAAA | 0.352 |
| AGGTACTA | 0.121 |
| CCCTGGTA | -0.293 |

Set 5
Target: Prothrombin, mature alpha-thrombin (F2, Homo sapiens, UniProt P00734)
Technique: aptamer microarray, sandwich
Form: DNA with 2'F-ANA
Matrix: in vitro
Concentration: 200 nM
Notes: whole 15-mer aptamer, many near background
With: Cy3 exosite-II aptamer, 400 nM
Direction: higher = stronger binding
Strand: GGTTGGTGTGGTTGG
| Modification | mean fluorescence intensity [a.u.] |
| --- | --- |
| 2'F-ANA at 3 5 7 8 9 10 11 12 14 | 61.5 |
| 2'F-ANA at 1 3 5 7 8 9 10 11 12 13 | 53.9 |
| 2'F-ANA at 1 2 5 6 8 9 12 14 15 | 56.5 |
| 2'F-ANA at 3 4 5 6 9 12 14 | 51.1 |
| 2'F-ANA at 5 7 8 10 11 12 14 15 | 57 |
| 2'F-ANA at 2 4 6 7 10 12 14 | 58.7 |
| 2'F-ANA at 2 4 13 | 232 |
| 2'F-ANA at 2 4 7 9 10 11 12 | 124 |
| 2'F-ANA at 1 2 3 4 5 11 12 | 135 |
| 2'F-ANA at 1 2 4 5 6 7 10 11 13 | 48.7 |
| 2'F-ANA at 2 7 8 9 11 13 15 | 351 |
| 2'F-ANA at 1 5 6 8 | 70.8 |
| 2'F-ANA at 1 10 11 13 | 48.7 |
| 2'F-ANA at 4 7 8 9 10 11 13 14 15 | 84 |
| 2'F-ANA at 1 3 5 8 9 10 11 12 | 49.3 |
| 2'F-ANA at 1 2 3 4 13 14 | 64.1 |
| 2'F-ANA at 3 4 7 10 11 13 | 230 |
| 2'F-ANA at 1 2 3 6 7 8 9 10 12 13 14 15 | 61.4 |
| 2'F-ANA at 2 4 5 8 9 10 11 12 15 | 84.8 |
| 2'F-ANA at 2 4 5 6 8 9 14 | 74 |
| 2'F-ANA at 1 2 3 4 5 6 7 8 9 13 | 50.2 |
| 2'F-ANA at 1 2 8 9 15 | 389 |
| 2'F-ANA at 1 2 4 5 6 7 9 13 15 | 49.8 |
| 2'F-ANA at 2 4 | 366 |
| 2'F-ANA at 1 2 3 9 11 13 14 | 69.7 |

Set 6
Sequence: B1 (IAA10)
Technique: two-hybrid
Direction: higher = firmer interaction
B1: IAA10 (Arabidopsis thaliana, UniProt Q38828); chain MNGLQEVCSSSGSVMIGLPAEEDENAAHSSEDSSCPDESVSETELDLALGLSIGRRKVRSSLSSSSSSLTRESGTKRSADSSPAAASNATRQVAVGWPPLRTYRINSLVNQAKSLATEGGLSSGIQKETTKSVVVAAKNDDACFIKSSRTSMLVKVTMDGVIIGRKVDLNALDSYAALEKTLDLMFFQIPSPVTRSNTQGYKTIKETCTSKLLDGSSEYIITYQDKDGDWMLVGDVPWQMFLGSVTRLRIMKTSIGAGVGK
| partner | notes | reference | positive tests |
| --- | --- | --- | --- |
| IAA20 (Arabidopsis thaliana, UniProt O24410) | weak activation fusion | out of 2 tests | 0 |
| ARF22 498-598 (Arabidopsis thaliana, UniProt Q9C8N7) | – | out of 4 tests | 2 |
| IAA27 (Arabidopsis thaliana, UniProt Q9ZSY8) | – | out of 4 tests | 3 |
| IAA32 (Arabidopsis thaliana, UniProt Q8RYC6) | – | out of 4 tests | 1 |
| ARF5 788-902 (Arabidopsis thaliana, UniProt P93024) | – | out of 4 tests | 2 |
| ARF16 570-670 (Arabidopsis thaliana, UniProt Q93YR9) | – | out of 4 tests | 0 |

Excerpt of the above (set 1):
| Variant | relative binding score |
| --- | --- |
| D48R | -3.14% |
| E174Q | 16.1% |
| T106K | -11.8% |
| V121W | -3.65% |
| L28M | 37.5% |
| R45M | -1.9% |
| V137S | -8.46% |
